Measured values from different studies.
Each numbered part is a random draw from the data of one study; scales do not carry over between parts.

Block 1
Target: Centromere-binding protein 1, full length, N-terminal tag (CBF1, Saccharomyces cerevisiae, UniProt P17106, residues 1-351)
UniProt P17106, sequence (whole entry, looked up): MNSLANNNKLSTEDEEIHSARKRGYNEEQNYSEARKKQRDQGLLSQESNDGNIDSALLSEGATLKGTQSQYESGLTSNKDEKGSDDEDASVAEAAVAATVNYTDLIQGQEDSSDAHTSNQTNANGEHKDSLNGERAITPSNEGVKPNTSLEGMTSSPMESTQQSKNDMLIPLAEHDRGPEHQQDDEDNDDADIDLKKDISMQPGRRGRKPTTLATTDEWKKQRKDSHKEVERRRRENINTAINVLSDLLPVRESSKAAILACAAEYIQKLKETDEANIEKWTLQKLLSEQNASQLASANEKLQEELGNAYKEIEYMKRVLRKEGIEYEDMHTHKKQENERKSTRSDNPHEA
Method: protein-binding microarray
Form: double-stranded DNA, one strand shown
Medium: in vitro
Concentration: 0.8 µM
Notes: whole 60-bp probe, no competitor
Reading: higher = stronger binding
Quantity: fluorescence intensity
All sequences stand within: … GTCTTGATTCGCTTGACGCTGCTG
CTAAAATTACCGTCGCTCGTGATTTGTTTGCAATTC: 1120 a.u.
CTAAATTTGGATATTTGTGTGACCCTTTTGTTTTTC: 511 a.u.
TGTACGAAGCTATCTCGCGTGCCTATAGTAGTTAGG: 546 a.u.
CTAATACTAGTTCTCCTCGTGGTATAGGAATCCTTC: 614 a.u.
GAAGCATGCTGCAAAGACGTGCCTTCGATGCTCTAG: 478 a.u.
GAAGGGTTACCTCATCTCACCTGTTTTGGAAATTAG: 560 a.u.
CTAGTAACAGGACAGCTGACAATTGCTAAGTTATTC: 611 a.u.
CTAGACAGATAGAGGGGCACGTGTTCAGCCAGTTTC: 12900 a.u.
GAAATTTTTTCTTGTTCTCACGTGGAGTATGCGTAG: 2710 a.u.
CTAGGGTAGTTAGTGCACGCGGGGAACTACCTCTTC: 518 a.u.
CTATACGACTTGAACATCAGAACGGCGATTTTCTTC: 597 a.u.
TGTACGAAGCTATACATGATGATTATAGTAGTTAGG: 505 a.u.
CTATACTATCAATTAAACGTGCACTAGGTGCTGTTC: 571 a.u.
CTAAGAGCAGTTCCTCAGGTGTTTCTTGTTACTTTC: 523 a.u.
CTACTCAACACATCTCAGCTGATTGTTCCTTATTTC: 584 a.u.

Block 2
Target: Histone acetyltransferase KAT6A, winged helix 2, GST fusion (KAT6A, Homo sapiens, UniProt Q92794, residues 85-181)
Method: protein binding microarray
Form: double-stranded DNA, one strand shown
Medium: in vitro
Concentration: not given
Notes: 8-mer, flanks averaged, mean of 2 arrays, mostly near background
Relative to: not given
Reading: higher = stronger binding
Quantity: E-score
Construct (chain): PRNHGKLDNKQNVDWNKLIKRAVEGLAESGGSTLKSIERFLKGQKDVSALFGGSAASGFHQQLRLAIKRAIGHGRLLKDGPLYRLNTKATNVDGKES
ACAAGAGT: -0.0994
GATGCACC: 0.0609
CAAACATA: -0.145
GATCGAGA: 0.083
ACATGCCG: 0.0194
ATGTAGTG: -0.14
ACCCGGGT: 0.126
GACCCTTA: -0.119
AATTCCAT: -0.0207
GTCTGTGA: 0.0723

Block 3
Target: RNA binding protein fox-1 homolog 2, RRM domain, GST-SBP tag (RBFOX2, Homo sapiens, UniProt O43251-10, residues 100-194)
Method: RNA Bind-n-Seq
Form: RNA
Medium: in vitro
Concentration: 365 nM
Notes: natural RNA segment, single round, ends assumed
Relative to: no-protein control
Reading: higher = stronger binding
Quantity: RBNS enrichment (R)
All sequences stand within: GGGAGUUCUACAGUCCGACGAUC … UGGAAUUCUCGGGUGCCAA
Construct (chain): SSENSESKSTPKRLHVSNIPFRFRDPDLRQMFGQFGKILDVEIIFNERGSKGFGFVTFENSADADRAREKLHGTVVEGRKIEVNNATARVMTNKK
GAAUAAAUAGAUGAAGUGAGAUACAAAGCUGGGUUUGAUUCAAAGCCCUUACUUUCCUAAUUAAACUAUGAUGCGUAUUUAUUUUUCUGCACCUUCCUUUCUUCCACAAA: 0.989
UUUUGUUUUUUGUUUUCUUUUUCCUAGGGGACAAGCAUGGGUGUUUGAUUUCAGAAAUCAGUACCUGGCGAGAUUUUUGUCUCAAAACGACUAUUUGAAUUUCAAGAACU: 0.329
GGGAAAAGGGGGCAAAGCCCCCACUUUUUAUACACUAGGCGGGGUAGACUGCGGGGUCCUAGCCUCUUCCUCCGACUUUGCUUUUGCAGGUCUUUCACUGCAGAUGGGGC: 0.559
GUUAUUAACAAGAUAUUUUGAGUACAAUAUGGCUCAUUGACUUUUCCAUUACAUCUGAGGAUUCCAGAGUCCUCUGUUCAUCCCUGGGAUAGAGUGAGCCCUCUUGCGUC: 1.09
CCUGUAUUCACACGGGUCACUCUGACUCAGACAGGUACUAUUCGUAGGCAGUGUAGACAGCAGGAGGAGCACCGGGCUUGGGCUUCCUCUGAGCCGUGAUGCCAAAGGUU: 0.483
CAGCCACACCUUGGUCCUCAUCUUGGUCCCUUCCAAUCUGAAACCUCGUGCCUGGCUCGUCUGCCACCUACAUUUCUCUUUCCAGCUGCUGUUUUGUAAAAAGAAAAAGA: 0.362
CAGCUGGGCGUCCAAGGGGGUCCUGGAACAGCAGACAUCUGACUGUCUGGUCCCUGGCUCCUCUGACCAGCCCUUAGGCUAUGUGGUGGCUUCUCUCUGCCUCAGUGUCC: 0.152
UGGGUAAAUUGCAUUUCAAACUAACUCAAUAUUCAGUGUUUUUGUUAAAACCUUGAACACUCCAGUUGACUGCAUCUGUGCUAGUGUGGUAUAUCAUACAUGAUCUUAAA: 1.24

Mixed results
PhoQ, residues 284 288 289 292 302 303 GLASVI — fold induction (PhoP, residues 12 14 15 18 19 AQCLL (Escherichia coli, UniProt P23836); Sort-seq, item: YFP reporter; E. coli; PhoQ-PhoP variant library, with: 10 µM Mg2+; relative to: high Mg2+ state, higher = stronger signaling): 15.5

Excerpt of the above (block 3):
CAGCUGGGCGUCCAAGGGGGUCCUGGAACAGCAGACAUCUGACUGUCUGGUCCCUGGCUCCUCUGACCAGCCCUUAGGCUAUGUGGUGGCUUCUCUCUGCCUCAGUGUCC: 0.152
GUUAUUAACAAGAUAUUUUGAGUACAAUAUGGCUCAUUGACUUUUCCAUUACAUCUGAGGAUUCCAGAGUCCUCUGUUCAUCCCUGGGAUAGAGUGAGCCCUCUUGCGUC: 1.09
UGGGUAAAUUGCAUUUCAAACUAACUCAAUAUUCAGUGUUUUUGUUAAAACCUUGAACACUCCAGUUGACUGCAUCUGUGCUAGUGUGGUAUAUCAUACAUGAUCUUAAA: 1.24
GAAUAAAUAGAUGAAGUGAGAUACAAAGCUGGGUUUGAUUCAAAGCCCUUACUUUCCUAAUUAAACUAUGAUGCGUAUUUAUUUUUCUGCACCUUCCUUUCUUCCACAAA: 0.989
